Results gathered from unrelated publications.
A part holds a random share of what one study measured. Substitutions count along the parent as printed.

Set 1
Target: CCNA1, cyclin fold, Cln2 fusion (human)
Technique: yeast growth competition, sequencing
Sample: yeast
Setting: strong parent motif
Baseline: not given
Direction: higher = stronger binding
Measurement: normalised enrichment score
Starting sequence: E2F1 docking peptide (human); PPVKRRLDFETDH
D12C: 1.84
R5L: 0.215
D12Q: 1.85
E10H: 1.87
K4M: 1.17
R5F: -0.0898
P2E: 1.44
D8T: 1.7
V3P: 1.75
T11L: 1.51
L7Y: 0.0928
R6I: 0.379
F9H: 0.153
E10L: 1.21
R6S: 1.45
P2A: 2.09
L7H: 0.35
T11V: 1.57
L7E: 0.24
D12E: 1.67
K4G: 0.729
D12L: 1.62
D12S: 1.8
L7M: 0.369

Set 2
Target: Sal-like protein 4, full length isoform A (SALL4, Homo sapiens, UniProt Q9UJQ4, residues 1-1053)
Chain of UniProt Q9UJQ4 (whole entry, looked up): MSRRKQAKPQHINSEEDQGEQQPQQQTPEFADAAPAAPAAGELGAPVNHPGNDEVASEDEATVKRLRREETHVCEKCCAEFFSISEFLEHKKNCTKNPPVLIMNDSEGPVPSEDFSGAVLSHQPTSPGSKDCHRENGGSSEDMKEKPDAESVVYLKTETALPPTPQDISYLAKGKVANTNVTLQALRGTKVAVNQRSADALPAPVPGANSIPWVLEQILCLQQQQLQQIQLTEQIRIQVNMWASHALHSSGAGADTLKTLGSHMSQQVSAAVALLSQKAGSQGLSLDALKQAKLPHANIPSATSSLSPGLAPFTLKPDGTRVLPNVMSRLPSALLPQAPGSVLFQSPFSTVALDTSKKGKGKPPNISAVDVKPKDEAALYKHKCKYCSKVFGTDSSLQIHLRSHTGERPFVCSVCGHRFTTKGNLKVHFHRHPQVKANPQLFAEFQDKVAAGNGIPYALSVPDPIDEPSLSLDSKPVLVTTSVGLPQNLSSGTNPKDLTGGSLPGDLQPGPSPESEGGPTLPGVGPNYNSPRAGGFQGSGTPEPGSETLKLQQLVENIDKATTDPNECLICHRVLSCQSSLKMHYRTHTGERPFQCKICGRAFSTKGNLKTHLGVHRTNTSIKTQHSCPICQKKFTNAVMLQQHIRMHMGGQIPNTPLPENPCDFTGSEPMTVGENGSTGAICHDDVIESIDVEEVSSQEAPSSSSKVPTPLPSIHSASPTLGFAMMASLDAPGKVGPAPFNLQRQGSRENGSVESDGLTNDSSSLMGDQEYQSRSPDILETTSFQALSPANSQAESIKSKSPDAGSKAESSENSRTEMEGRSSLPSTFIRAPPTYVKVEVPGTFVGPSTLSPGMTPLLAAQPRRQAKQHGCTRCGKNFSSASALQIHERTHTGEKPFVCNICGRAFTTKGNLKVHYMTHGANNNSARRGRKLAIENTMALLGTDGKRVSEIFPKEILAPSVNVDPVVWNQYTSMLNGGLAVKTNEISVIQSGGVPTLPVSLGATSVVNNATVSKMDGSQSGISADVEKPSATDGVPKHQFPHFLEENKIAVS
Technique: universal PBM
Form: double-stranded DNA, one strand shown
Sample: in vitro
Tested at: 600 nM
Setting: 8-mer, flanks averaged, mean of replicates
Direction: higher = stronger binding
Measurement: E-score
CAAAAGGG: -0.0717
ACACCTTA: 0.0623
GCTCTCCA: -0.115
GTACATAA: 0.311
GATAGCGC: -0.0866
CGGGATGC: -0.347
ATGCAGGG: -0.152
AATCATGA: 0.289
ATCGGCGC: -0.234
CCCTTTAG: -0.185
CACGACAG: -0.126
GCCAGACC: -0.372
CTTAAAAA: 0.233
AGTTGATA: 0.229
TGGAAACA: 0.0497
CGTTTGTA: 0.102
ATCATTTC: 0.275
ACAGTAAG: 0.0343
AATAACTC: 0.327
ACATTACT: 0.235
ACTTCTAA: 0.0398
CTTCCACA: -0.0389
CGTGATTC: 0.0286
CCCGACCG: -0.338
AATACTCT: 0.36

Set 3
Target: ABI1, truncated, D143A, DHFR fusion (Arabidopsis thaliana)
Technique: DHFR PCA, deep sequencing
Sample: yeast
Setting: methotrexate growth selection, single substitutions
Added: (+)-ABA 58 µM
Baseline: wild-type fitted maximum
Direction: higher = stronger binding
Measurement: relative binding score
Starting sequence: PYL1, truncated, DHFR fusion (Arabidopsis thaliana); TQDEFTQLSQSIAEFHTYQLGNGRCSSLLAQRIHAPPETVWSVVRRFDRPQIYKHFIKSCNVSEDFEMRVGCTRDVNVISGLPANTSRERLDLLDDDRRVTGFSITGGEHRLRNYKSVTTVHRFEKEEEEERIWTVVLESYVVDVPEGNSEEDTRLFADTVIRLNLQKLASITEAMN; partner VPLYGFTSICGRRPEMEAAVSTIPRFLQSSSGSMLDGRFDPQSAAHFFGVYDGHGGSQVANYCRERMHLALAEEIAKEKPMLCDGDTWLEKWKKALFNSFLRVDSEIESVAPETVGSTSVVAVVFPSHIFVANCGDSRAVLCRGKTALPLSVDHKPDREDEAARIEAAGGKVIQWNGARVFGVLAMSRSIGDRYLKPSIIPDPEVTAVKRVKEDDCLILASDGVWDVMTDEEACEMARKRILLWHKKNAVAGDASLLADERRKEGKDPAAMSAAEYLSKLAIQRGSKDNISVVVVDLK
M176C: 73.5%
S80M: 13.2%
F5V: 91.9%
G81N: 21.6%
I133E: 103%
L93T: 90%
R49F: 54.1%
Q31T: 48.9%
M68T: 76.8%
G71S: 37.9%
S42R: 89.7%
T86I: 51.1%
V137N: 2.65%
K116G: 21.3%
I79T: 84.6%
F47R: -6.25%
L166K: -3.91%

Set 4
Target: ATF7, bZIP domain (human)
Technique: DHFR protein complementation
Sample: yeast
Setting: single substitutions, most at no-binding floor
Baseline: wild-type JUN-FOS pair
Direction: higher = stronger binding
Measurement: binding fitness
Starting sequence: JUN, bZIP domain (human); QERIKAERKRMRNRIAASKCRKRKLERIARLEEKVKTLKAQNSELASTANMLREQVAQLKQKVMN; partner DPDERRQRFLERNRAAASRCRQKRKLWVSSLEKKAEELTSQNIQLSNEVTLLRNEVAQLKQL
R53P: -1.4 natural log
Q41I: -1 natural log
A46D: -1.25 natural log
K34E: -1.28 natural log
Q55K: -1.19 natural log
A46M: -0.928 natural log
S47I: -0.988 natural log
L38W: -1.33 natural log
A40L: -1.04 natural log
Q58P: -1.31 natural log
E54V: -1.26 natural log
T37H: -0.723 natural log
A29L: -1.11 natural log
A40G: -1.22 natural log
L45Q: -1.37 natural log
L52A: -1.46 natural log
V35Y: -1.33 natural log
L52M: -1.47 natural log
N42E: -1.42 natural log

Set 5
Target: Interferon regulatory factor 3, full length, phosphomimetic (IRF3, Homo sapiens, UniProt Q14653, residues 1-427, S386D/S396D/S398D/S402D/T404D/S405D)
Technique: protein-binding microarray
Form: double-stranded DNA, one strand shown
Sample: in vitro
Tested at: 2540 nM top
Setting: 60-bp whole probe
Added: salmon DNA 0.4 mg/ml
Baseline: random background probes
Direction: higher = stronger binding
Measurement: fitted relative affinity
Shared flanks, not repeated: GCCTAGCAC … GTCTTGATTCGCTTGACGCTGCTG
Residues (chain): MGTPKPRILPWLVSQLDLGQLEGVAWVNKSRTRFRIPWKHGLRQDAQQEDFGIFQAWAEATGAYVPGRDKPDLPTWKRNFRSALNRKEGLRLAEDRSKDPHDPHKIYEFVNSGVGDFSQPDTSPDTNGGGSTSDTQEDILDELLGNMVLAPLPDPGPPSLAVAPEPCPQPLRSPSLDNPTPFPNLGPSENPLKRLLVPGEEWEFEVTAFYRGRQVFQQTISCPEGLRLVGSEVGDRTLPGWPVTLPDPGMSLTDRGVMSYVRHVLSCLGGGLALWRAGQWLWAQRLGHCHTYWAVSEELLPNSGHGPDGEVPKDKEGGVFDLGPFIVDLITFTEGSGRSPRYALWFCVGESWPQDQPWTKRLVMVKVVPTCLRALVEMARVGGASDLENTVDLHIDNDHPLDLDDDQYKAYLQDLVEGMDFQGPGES
TTAGATTTGGGGACTGGATTAGTGCTA: -0.541 z-score
TATTGTGTCAACTTTCTCTGCGTGCTA: 0.843 z-score
TTAGGTTTCCTTGCCCTTTAGTGCTAG: 4.03 z-score
TTAGGTTTCGGTACTGGGTTAGTGCTA: 7.58 z-score
GACGATTTCAGAATCGAGACGTGCTAG: 2.57 z-score
GACGGTATCGACACTGGGGGCGTGCTA: 0.755 z-score
GACGGTTCCCTTTTCCTGACGTGCTAG: 5.96 z-score
TTAGGTCTCGGTCTCGCTTAGTGCTAG: 0.78 z-score
TTAGGTTTCGCCTTTCGGTTAGTGCTA: 3.6 z-score
ATTGGTCTTCACTTGGCAAAGTGCTAG: -0.274 z-score
TTAGGACTTCTTATCCTTTAGTGCTAG: 0.528 z-score
CACATCTGCTGTGGGAGCACGTGCTAG: 0.698 z-score
TTAGACATCAGTCTCGATTAGTGCTAG: 0.0196 z-score
GACGAACTGAGACTGCAGACGTGCTAG: -0.354 z-score
TCAATTATTGTCTTCCCACTGTGCTAG: 0.325 z-score
TTCTTTATGCACTCTTTACATGTGCTA: 1.02 z-score
TTAGGTTTCCTTCTCCTTAAGTGCTAG: 10.5 z-score
TTAGATATCCGACTGGATTAGTGCTAG: 0.633 z-score
GACTGTTTCGGTCTCGGGACGTGCTAG: 7.77 z-score
TCAATTCTGAAAATGGAACTGTGCTAG: 0.919 z-score
TTAGGACTTGGTTTCGGTTAGTGCTAG: 4.31 z-score
TTAGGTATCGAGTTTCGGTTAGTGCTA: 3.69 z-score
GACGGACTGGGACTGTGGACGTGCTAG: -0.73 z-score
GGTGCCTCGGGTTCAGGGAGGTGCTAG: -0.778 z-score
TTAGGTTTCGGTTTCAGTTAGTGCTAG: 11.1 z-score

Set 6
Target: Histone acetyltransferase KAT6A, winged helix 2, GST fusion (KAT6A, Homo sapiens, UniProt Q92794, residues 85-181)
Technique: protein binding microarray
Form: double-stranded DNA, one strand shown
Sample: in vitro
Tested at: not given
Setting: 8-mer, flanks averaged, mean of 2 arrays, mostly near background
Baseline: not given
Direction: higher = stronger binding
Measurement: E-score
Target sequence (chain): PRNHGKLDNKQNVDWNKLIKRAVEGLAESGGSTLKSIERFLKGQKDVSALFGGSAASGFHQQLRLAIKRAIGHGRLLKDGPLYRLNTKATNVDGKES
GAGTAACA: -0.00591
ATCCGGTC: 0.0138
ATAGGCAG: 0.0469
CCACCACC: -0.00381
GCTGTTCC: -0.0879
CCACCTAA: -0.0561
CGTTGCAC: 0.179
CCACAGAA: 0.0139
AAGTAGGA: -0.105
ACACATCT: -0.15
CAGGAGTC: -0.0441
AATTTGTA: -0.0702
AGCCAGTG: -0.131
CGACATCA: 0.0851
GCAGAAGA: 0.0443
AATCGTCT: -0.193
CACGACCC: 0.00679
